Experimental data pooled from the literature.
± marks the error that the study gave.
Organism: Trypanosoma cruzi

Structure (SMILES) | assay | system | setting | IC50
NNc1nnc(Cl)c2ccccc12 | parasite growth |  | 5 days, epimastigote | > 25 µM
C=C1C(=O)O[C@@H]2C[C@H](C)[C@@H]3C[C@H](OCc4cn(Cc5ccccc5)nn4)[C@H](O)[C@@]3(C)C[C@H]12 | parasite growth, thymidine uptake |  | epimastigote | 33.9 µM
Cc1cc2[nH]c(C(=O)Nc3ccccc3C)c(CN3CCOCC3)c2s1 | parasite growth, imaging | NIH3T3, TULAHUEN | intracellular, amastigote | > 73 µM
CC(C)C[C@@H]1NC(=S)NC1=O | parasite growth | LLC-MK2 | 48 h, intracellular, amastigote | 34.1 mg/L
CS(=O)(=O)C(CCl)Cn1cncc1[N+](=O)[O-] (stereo not shown) | parasite growth |  | 24 h, trypomastigote | 903 µM
Cc1nc(C(=O)N2CCC[C@H]2C(=O)N[C@@H](CCC(=O)O)C(=O)N[C@@H](CC(C)C)C(=O)NC(C)(C)C(=O)N[C@@H](CC(C)C)C(=O)N[C@@H](CC(C)C)C(=O)NC(C)(C)C(=O)NC(C)(C)C(=O)NCCC(=O)NC2(CN(C)C)CCC2)co1 | beta-galactosidase | L6, Tulahuen C2C4 |  | > 2 µM
CC(C)(C)c1ccc(OC(=O)/C=C/C#N)cc1 | parasite growth, resazurin | mouse Macrophage | 24 h, intracellular, amastigote | 23.1 µM
NC(COc1ccccc1[N+](=O)[O-])COc1ccccc1[N+](=O)[O-] | parasite growth | L929, TULAHUEN | intracellular, amastigote | 18 µM
COc1ccc(OC(=O)/C=C/C#N)cc1 | parasite growth, resazurin | mouse Macrophage | 24 h, intracellular, amastigote | 92.3 µM
NC(COc1ccc([N+](=O)[O-])cc1)COc1ccc([N+](=O)[O-])cc1 | parasite growth | L929, TULAHUEN | intracellular, amastigote | 10 µM
COc1cc(/C=C/C(=O)N2CCN(c3ccccc3)CC2)ccc1O | parasite growth, resazurin |  | 24 h, trypomastigote | > 150 µM
N#C/C=C/C(=O)Oc1cccc(F)c1 | parasite growth, resazurin | mouse Macrophage | 24 h, intracellular, amastigote | 128 µM
Cc1ncc([N+](=O)[O-])n1CC(O)CO (stereo not shown) | parasite growth |  | 24 h, trypomastigote | 1590 µM
CO/N=C(\C)c1ccc(-n2ccnc2)c(NC(=O)c2cnc(-c3ccccc3)nc2)c1 | parasite growth, resazurin |  | 48 h, epimastigote | 6.11 µM
C#CCO[C@H]1C[C@H]2[C@@H](C)C[C@H]3OC(=O)C(=C)[C@H]3C[C@]2(C)[C@H]1O | parasite growth, thymidine uptake |  | epimastigote | 25.1 µM
NC(COc1ccc2ccccc2c1)COc1ccc2ccccc2c1 | parasite growth | L929, Tulahuen β-galactosidase | amastigotes and trypomastigotes | inactive
NNc1nnc(NN)c2ccccc12 | parasite growth |  | 5 days, epimastigote | > 25 µM
COc1ccc(Nc2c(C#N)cnc3ccc(Cl)cc23)cc1 | growth | Y, epimastigote | 72 h, added: 150 µM heme | 0.9 ± 1.2 µM
CS(=O)(=O)N(Cc1cnc[nH]1)c1ccc(-c2nc3ccccc3s2)cc1 | parasite growth, resazurin |  | 48 h, epimastigote | 5.98 µM
C=C1C(=O)O[C@@H]2C[C@H](C)[C@@H]3C[C@H](O[Si](C)(C)C)[C@H](O[Si](C)(C)C)[C@@]3(C)C[C@H]12 | parasite growth, thymidine uptake |  | epimastigote | 13.2 µM
NC(COc1cccc2ccccc12)COc1cccc2ccccc12 | parasite growth | L929, TULAHUEN | intracellular, amastigote | 13 µM
COc1cc(O)c2c(O)c(C(C)=O)c(C)cc2c1 | parasite growth |  | 72 h, epimastigote | > 50 µM
N#C/C=C/C(=O)Oc1ccc(Br)cc1 | parasite growth, resazurin |  | 72 h, epimastigote | 17.5 µM
CC(=O)OC(CCl)Cn1cnc([N+](=O)[O-])c1 (stereo not shown) | parasite growth |  | 24 h, trypomastigote | 1130 µM
C#CCO[C@H]1C[C@H]2[C@@H](C)C[C@H]3OC(=O)C(=C)[C@H]3C[C@]2(C)[C@H]1OCC#C | parasite growth, thymidine uptake |  | epimastigote | 3.72 µM
COc1cc(O)c(-c2ccc(OC)c3c(O)cc(C)c(-c4cc(-c5c(O)cc(OC)c6c5C[C@@H](C)N[C@@H]6C)c5cc(C)cc(OC)c5c4O)c23)c2c1[C@@H](C)N(C)[C@H](C)C2 |  | Tulahuen C4, amastigotes |  | 19.7 µM
CC(=O)OC(CF)Cn1cnc([N+](=O)[O-])c1 (stereo not shown) | parasite growth |  | 24 h, trypomastigote | 1050 µM
O=C1CNC(=S)N1 | parasite growth | LLC-MK2 | 48 h, intracellular, amastigote | 73.1 mg/L

For quick reference, copied from above:
Structure (SMILES) | assay | system | setting | IC50
CO/N=C(\C)c1ccc(-n2ccnc2)c(NC(=O)c2cnc(-c3ccccc3)nc2)c1 | parasite growth, resazurin |  | 48 h, epimastigote | 6.11 µM
CC(C)(C)c1ccc(OC(=O)/C=C/C#N)cc1 | parasite growth, resazurin | mouse Macrophage | 24 h, intracellular, amastigote | 23.1 µM
N#C/C=C/C(=O)Oc1cccc(F)c1 | parasite growth, resazurin | mouse Macrophage | 24 h, intracellular, amastigote | 128 µM
C#CCO[C@H]1C[C@H]2[C@@H](C)C[C@H]3OC(=O)C(=C)[C@H]3C[C@]2(C)[C@H]1OCC#C | parasite growth, thymidine uptake |  | epimastigote | 3.72 µM
